Measured values gathered from unrelated publications.
Each numbered part is a random draw from the data of one study; scales do not carry over between parts. Substitutions count along the parent as printed.

Sample 1 — target: CEP164, C-terminal peptide (human); method: DHFR complementation, deep sequencing; medium: yeast; baseline: wild type; reading: higher = weaker binding
Setting: single substitutions, model-inferred values
Parent: PDZK1, PDZ domain 2 (human); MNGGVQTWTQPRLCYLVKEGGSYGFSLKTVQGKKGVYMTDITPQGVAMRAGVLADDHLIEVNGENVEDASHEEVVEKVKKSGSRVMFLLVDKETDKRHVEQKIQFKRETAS; partner HNRVKVYRF
`Q6G` — result for “binding free energy change”: -0.0265 kcal/mol.
For `K33F`, “binding free energy change” read 0.345 kcal/mol.
`G4A` — result for “binding free energy change”: -0.0114 kcal/mol.
Under “binding free energy change”, `L58V` is recorded as -0.373 kcal/mol.
Under “binding free energy change”, `V5D` is recorded as 0.0487 kcal/mol.

Sample 2 — method: DHFR PCA, deep sequencing; medium: yeast; added: (+)-ABA 0.39 µM; baseline: wild-type fitted maximum; reading: higher = stronger binding
Target: ABI1, truncated, D143A, DHFR fusion (Arabidopsis thaliana)
Setting: methotrexate growth selection, single substitutions
Parent: PYL1, truncated, DHFR fusion (Arabidopsis thaliana); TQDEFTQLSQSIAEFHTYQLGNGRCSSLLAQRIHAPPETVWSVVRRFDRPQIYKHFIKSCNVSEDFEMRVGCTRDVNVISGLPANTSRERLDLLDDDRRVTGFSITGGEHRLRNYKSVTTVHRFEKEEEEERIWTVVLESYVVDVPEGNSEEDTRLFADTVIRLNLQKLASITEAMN; partner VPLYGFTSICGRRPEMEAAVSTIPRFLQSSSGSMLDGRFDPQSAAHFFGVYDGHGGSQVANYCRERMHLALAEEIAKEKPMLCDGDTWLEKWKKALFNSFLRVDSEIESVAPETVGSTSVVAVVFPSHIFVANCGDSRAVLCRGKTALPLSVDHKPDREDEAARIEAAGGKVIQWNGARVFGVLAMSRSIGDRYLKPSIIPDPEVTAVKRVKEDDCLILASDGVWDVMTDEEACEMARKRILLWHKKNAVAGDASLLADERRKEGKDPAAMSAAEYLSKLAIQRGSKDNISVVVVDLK
Under “relative binding score”, `Y141G` is recorded as 1.55%.
`H55I`: “relative binding score” 62.1%.
`S104I` — result for “relative binding score”: -5.76%.
`M68E` — result for “relative binding score”: -9.58%.
For `E109N`, “relative binding score” read 61.6%.
Under “relative binding score”, `V161C` is recorded as 49.1%.
Under “relative binding score”, `N114F` is recorded as -19.4%.

Sample 3 — method: Sort-seq; item: YFP reporter; medium: E. coli; setting: PhoQ-PhoP variant library; added: 10 µM Mg2+; baseline: high Mg2+ state; reading: higher = stronger signaling
Substance: PhoQ, residues 284 288 289 292 302 303 NLCILV
PhoP, residues 12 14 15 18 19 TQAML (Escherichia coli, UniProt P23836) — fold induction: 27.8.
It gave 21.3 for fold induction (PhoP, residues 12 14 15 18 19 NQCAL (Escherichia coli, UniProt P23836)).
The fold induction was 0.129 (PhoP, residues 12 14 15 18 19 LHTVL (Escherichia coli, UniProt P23836)).

Sample 4 — method: EMSA with sequencing; molecule type: double-stranded DNA, one strand shown; medium: in vitro; concentration: 10 and 20 nM; baseline: negative control set to 0; reading: higher = stronger binding
Target: Hepatocyte nuclear factor 3-alpha (Foxa1, Mus musculus, UniProt P35582, residues 1-468, full length assumed)
Setting: whole designed probe, mean of two concentrations, ends assumed
Construct (chain): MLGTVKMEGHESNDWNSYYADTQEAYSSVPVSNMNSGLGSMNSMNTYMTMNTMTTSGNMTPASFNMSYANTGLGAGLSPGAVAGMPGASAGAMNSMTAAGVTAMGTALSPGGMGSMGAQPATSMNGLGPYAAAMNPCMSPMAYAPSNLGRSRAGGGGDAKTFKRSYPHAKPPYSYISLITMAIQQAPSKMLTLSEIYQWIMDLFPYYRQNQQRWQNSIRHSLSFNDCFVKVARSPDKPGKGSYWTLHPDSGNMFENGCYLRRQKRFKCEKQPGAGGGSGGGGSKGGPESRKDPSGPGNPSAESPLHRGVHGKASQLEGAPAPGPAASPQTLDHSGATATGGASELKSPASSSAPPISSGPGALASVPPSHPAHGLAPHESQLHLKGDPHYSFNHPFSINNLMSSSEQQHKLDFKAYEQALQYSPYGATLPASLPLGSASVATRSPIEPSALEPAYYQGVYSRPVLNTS
For `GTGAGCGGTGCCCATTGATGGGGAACATCTTCCCCCTCTTCCTTGCCCCACCAGCTCACCTTCCCGGGTATATTGGAGATAGGAAATTAATATAAGCCGGCATTCGTTAACCCTCTTCTGGCGCAAACTGCCAAAGTAAACAGATCTAACATGGTCCTTTGGCGACGCCAGGCTCCGGGAGAGCAAAGCACCGTGTCAGGGCCATGATCCGGGGTGGCCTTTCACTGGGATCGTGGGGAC`, “normalised bound fraction” read 0.405 ratio.
For `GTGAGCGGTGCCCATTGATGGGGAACATCTTCCCCCTCTTCCTTGCCCCACCAGCTCACCTTCCCGGGTTATTTGCAGATAGGAAAATAAATAAAGCCGGCATTCGTTAACCCTCTTCTGGCGCAAACTGCTGTTTGCTCTGGATCTAACATGGTCCTTTGGCGACGCCAGGCTCCGGGAGAGCAAAGCACCGTGTCAGGGCCATGATCCGGGGTGGCCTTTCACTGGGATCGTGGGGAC`, “normalised bound fraction” read 0.359 ratio.
Under “normalised bound fraction”, `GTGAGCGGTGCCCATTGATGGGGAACATCTTCCCCCTCTTCCTTGCCCCACCAGCTCACCTTCCCGGGTTATTTGCAGATAGGAAAATAAATAAAGCCGGCATTCGTTAACCCTCTTCACGCGCATACTGCTGTTTGCTCTGGATGAATCATGGTCCTTTGGCGACGCCAGGCTCCGGGAGAGCAAAGCACCGTGTCAGGGCCATGATCCGGGCTCGCCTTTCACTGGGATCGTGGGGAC` is recorded as 0.341 ratio.
`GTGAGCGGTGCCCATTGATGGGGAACATCTTCCCCCTCTTCCTTGCCCCACCAGCTCACCTTCCCGGGTCAAAGTAAACAAGTGTTTACTTTGAAGCCGGCATTCGTTAACCCTCTTCACGCGCATACTGCCAAAGTAAACAGATCTAACATGGTCCTTTGGCGACGCCAGGCTCCGGGAGAGCAAAGCACCGTGTCAGGGCCATGATCCGGGGTGGCCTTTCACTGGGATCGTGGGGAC`: “normalised bound fraction” 0.541 ratio.
Under “normalised bound fraction”, `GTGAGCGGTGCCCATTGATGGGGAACTTGACCACTCTTCAAGTTCAATGACCACATTAAATCCTGAAGAATATTCATCTTTGCCTTTGGAATCATTTGTCCAGACTTCATCATCATCTAAGTAATCTTCACCTTCAGACCCTTACCAGGAGAAAAGGCATGAGCTGGCTGTCTAAAAGGGCCCATCAAATGGGGAGAAATCACCATGTTCTAAAAGGGATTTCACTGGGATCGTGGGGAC` is recorded as -0.0922 ratio.

Some of these lines once more (sample 1):
For `K33F`, “binding free energy change” read 0.345 kcal/mol.
Under “binding free energy change”, `V5D` is recorded as 0.0487 kcal/mol.
